{"data": "Experimental data collected from several papers", "note": "Each line is one published result; not all experiments were run side by side. Numbers after ± are the reported error."}
{"Compound": "CC(C)N1CCn2cc(C(=O)NCc3ccc(F)cc3F)c(=O)c(O)c2C1=O", "target or system": "HIV-1", "assay": "viral replication, single-round vector infection", "test system": "IN E138K/G140A/Q148K", "quantity": "EC50", "value": "391 ± 22.7 nM"}
{"Compound": "CC[C@H](C)[C@H](NC(=O)[C@H](CCCCN)NC(=O)[C@H](CCCCN)NC(=O)[C@H](CC(C)C)NC(=O)[C@H](Cc1c[nH]c2ccccc12)NC(=O)CN)C(=O)NCC(=O)N[C@@H](CCCCN)C(=O)N[C@@H](CCCCN)C(=O)N[C@H](C(=O)N[C@@H](CCC(=O)O)C(=O)N[C@@H](CCCNC(=N)N)C(=O)N[C@H](C(=O)NCC(=O)N[C@@H](CCC(N)=O)C(=O)N[C@@H](Cc1c[nH]cn1)C(=O)N[C@H](C(=O)N[C@@H](CCCNC(=N)N)C(=O)N[C@@H](CC(=O)O)C(=O)N[C@@H](C)C(=O)N[C@H](C(=O)N[C@H](C(=O)N[C@@H](CCC(N)=O)C(=O)N[C@H](C(=O)N[C@H](C(=O)NCC(=O)N[C@H](C(=O)N[C@@H](C)C(=O)N[C@@H](CCC(N)=O)C(=O)N[C@@H](CCC(N)=O)C(=O)N[C@@H](C)C(=O)N[C@@H](C)C(=O)N[C@@H](CC(N)=O)C(=O)N[C@H](C(=O)N[C@@H](C)C(=O)N[C@@H](C)C(=O)N[C@H](C(=O)N[C@@H](CC(C)C)C(=O)N[C@@H](CCCCN)C(N)=O)[C@@H](C)O)C(C)C)C(C)C)[C@@H](C)CC)[C@@H](C)O)[C@@H](C)CC)[C@@H](C)O)[C@@H](C)O)C(C)C)[C@@H](C)CC", "target or system": "Escherichia coli", "assay": "broth microdilution", "test system": "D31, CAMHB", "quantity": "MIC", "value": "4 µg/mL"}
{"Compound": "O=C(NCc1ccc(F)cc1F)c1c(O)c2cccnc2n(O)c1=O", "target or system": "HIV-1", "assay": "viral replication", "test system": "infected cells, integrase N155H mutant", "quantity": "EC50", "value": "31 ± 8 nM"}
{"Compound": "Cc1cc(C)cc(S(=O)(=O)c2c(C(N)=O)[nH]c3ccc(Cl)cc23)c1", "target or system": "HIV-1", "assay": "viral replication", "test system": "MT-4, Y188L mutant", "quantity": "EC50", "value": "1100 ± 630 nM"}
{"Compound": "CC[C@H](C)[C@@H]([C@@H](CC(=O)N1CCC[C@H]1[C@H](OC)[C@@H](C)C(=O)N[C@H](C)[C@@H](O)c1ccccc1)OC)N(C)C(=O)[C@@H](NC(=O)[C@H](C(C)C)N(C)C(=O)OCc1ccc(NC(=O)[C@H](CCCNC(N)=O)NC(=O)[C@@H](NC(=O)CCCC(=O)NCCC(=O)N(C)CC(=O)N(C)CC(=O)N(C)CC(=O)N(C)CC(=O)N(C)CC(=O)N(C)CC(=O)N(C)CC(=O)N(C)CC(=O)N(C)CC(=O)N(C)CC(=O)N[C@H]2CSCCC(=O)N3CN4CN(C3)C(=O)CCSC[C@H](NC(=O)[C@@H](CC(=O)O)NC(=O)[C@H](Cc3cccc5ccccc35)NC(=O)[C@@H]3CCCN3C2=O)C(=O)N[C@@H](CCSC)C(=O)N[C@@H](CCCCNC(=N)N)C(=O)N[C@@H](CC(=O)O)C(=O)N[C@@H](Cc2c[nH]c3ccccc23)C(=O)N[C@@H](CO)C(=O)N[C@@H]([C@@H](C)O)C(=O)N2CCC[C@H]2C(=O)N2C[C@H](O)C[C@H]2C(=O)N[C@@H](Cc2c[nH]c3ccccc23)C(=O)N[C@H](C(N)=O)CSCCC4=O)C(C)C)cc1)C(C)C", "test system": "mouse plasma", "conditions": "2 µM, pH 7.4", "quantity": "t_half", "value": "264 min"}
{"Compound": "Cc1cc(/C=C/C#N)cc(C)c1Nc1nc(Nc2ccc(C#N)cc2)ncc1N", "target or system": "HIV-1", "assay": "viral replication, single-round infection", "test system": "RT mutant Y188L", "quantity": "EC50", "value": "2.9 ± 0.2 nM"}
{"Compound": "CC(C)n1ccn2cc(C(=O)NCc3ccc(F)cc3F)c(=O)c(O)c2c1=O", "target or system": "HIV-1", "assay": "viral replication, single-round vector infection", "test system": "IN E138K/G140A/Q148K", "quantity": "EC50", "value": "381 ± 20.3 nM"}
{"Compound": "Cc1cccc(-c2cc(C#N)cc(Oc3c(C(F)(F)F)ccn(Cc4n[nH]c(=O)n4C)c3=O)c2)c1", "target or system": "HIV-1", "assay": "viral cytopathicity", "test system": "MT4, L100I mutant", "quantity": "EC50", "value": "24 ± 4.9 nM"}
{"Compound": "Cc1cc(C)cc(S(=O)(=O)c2c(C(=O)NC3CC4(C3)CN(Cc3n[nH]c(=O)[nH]3)C4)[nH]c3ccc(Cl)cc23)c1", "target or system": "HIV-1", "assay": "viral replication", "test system": "MT-4, K103N mutant", "quantity": "EC50", "value": "56 ± 5 nM"}
{"Compound": "CC(C)C[C@@H]1NC(=O)[C@H](CCCNC(=N)N)NC(=O)[C@@H]2CCCN2C(=O)[C@@H]2CSSC[C@H](NC(=O)CNC(=O)[C@@H]3CCCN3C(=O)[C@H](CCCCN)NC(=O)[C@H](CC(=O)O)NC(=O)[C@@H](NC(=O)CN)C(C)C)C(=O)N[C@@H](CCCNC(=N)N)C(=O)N[C@@H](Cc3ccc(O)cc3)C(=O)N[C@@H](CC(C)C)C(=O)N[C@@H](Cc3ccccc3)C(=O)NCC(=O)NCC(=O)N[C@H]3CSSC[C@H](NC(=O)CNC1=O)C(=O)N[C@@H](CCCCN)C(=O)NCC(=O)N[C@@H](CCCCN)C(=O)NCC(=O)N[C@@H](Cc1c[nH]cn1)C(=O)N[C@@H](CC(=O)O)C(=O)N[C@@H](Cc1ccc(O)cc1)C(=O)N[C@H](C(=O)N[C@@H](C)C(=O)N[C@@H](Cc1c[nH]c4ccccc14)C(=O)N[C@@H](CC(=O)O)C(=O)NCC(=O)N[C@H](C(=O)N[C@@H](Cc1ccccc1)C(=O)N[C@@H](CO)C(=O)N[C@@H](CC(=O)O)C(=O)O)[C@@H](C)O)CSSC[C@H](NC(=O)[C@H](CC(=O)O)NC(=O)[C@H](CC(=O)O)NC(=O)[C@H](CC(=O)O)NC(=O)[C@H](CO)NC(=O)[C@H](CCCCN)NC3=O)C(=O)N2", "target or system": "SCN1A (Homo sapiens, UniProt P35498)", "assay": "sodium current, automated patch clamp", "test system": "HEK293", "conditions": "1 µM, 50 ms depolarizing pulse", "scale": "baseline: compound over control", "quantity": "inactivation time constant ratio", "value": "3.51 ± 0.26"}
{"Compound": "Cc1cc(/C=C/C#N)cc(C)c1-n1cnc2cnc(Nc3ccc(C#N)cc3)nc21", "target or system": "HIV-1", "assay": "viral replication, single-round infection", "test system": "RT mutant Y181C", "quantity": "EC50", "value": "6.5 ± 0.2 nM"}
{"Compound": "CCCCCCCCCCCCCCCC(=O)N[C@@H](CCC(=O)NCCOCCOCCC(=O)NCCOCCOCCC(=O)NCCCC[C@H](NC(=O)[C@H](CC(=O)O)NC(=O)[C@H](CC(C)C)NC(=O)[C@H](Cc1ccc(O)cc1)NC(=O)[C@H](CCCCN)NC(=O)[C@H](CO)NC(=O)[C@H](Cc1ccc(O)cc1)NC(=O)[C@H](CC(=O)O)NC(=O)[C@H](CO)NC(=O)[C@@H](NC(=O)[C@H](Cc1ccccc1)NC(=O)[C@@H](NC(=O)CNC(=O)[C@H](CCC(N)=O)NC(=O)[C@@H](CO)NC(=O)[C@@H](N)Cc1c[nH]cn1)[C@@H](C)O)[C@@H](C)O)C(=O)N[C@@H](CCCNC(=N)N)C(=O)N[C@@H](CCCNC(=N)N)C(=O)N[C@@H](C)C(=O)N[C@@H](CCC(N)=O)C(=O)N[C@@H](CC(=O)O)C(=O)N[C@@H](Cc1ccccc1)C(=O)N[C@H](C(=O)N[C@@H](CCC(N)=O)C(=O)N[C@@H](Cc1c[nH]c2ccccc12)C(=O)N[C@@H](CC(C)C)C(=O)N[C@@H](CC(C)C)C(=O)N[C@@H](CC(N)=O)C(=O)N[C@H](C(=O)NCC(=O)NCC(=O)N1CCC[C@H]1C(=O)N[C@@H](CO)C(=O)N[C@@H](CO)C(=O)NCC(=O)N[C@@H](C)C(=O)N1CCC[C@H]1C(=O)N1CCC[C@H]1C(=O)N1CCC[C@H]1C(=O)N[C@@H](CO)C(N)=O)[C@@H](C)O)C(C)C)C(=O)O", "assay": "measured: ALP", "test system": "Sprague-Dawley rat, female", "conditions": "subcutaneous, 100 µg/kg once daily, 14 days", "quantity": "serum enzyme activity", "value": "78.8 ± 10.2 U/L"}
{"note": "Excerpt of the above:"}
{"Compound": "CC(C)C[C@@H]1NC(=O)[C@H](CCCNC(=N)N)NC(=O)[C@@H]2CCCN2C(=O)[C@@H]2CSSC[C@H](NC(=O)CNC(=O)[C@@H]3CCCN3C(=O)[C@H](CCCCN)NC(=O)[C@H](CC(=O)O)NC(=O)[C@@H](NC(=O)CN)C(C)C)C(=O)N[C@@H](CCCNC(=N)N)C(=O)N[C@@H](Cc3ccc(O)cc3)C(=O)N[C@@H](CC(C)C)C(=O)N[C@@H](Cc3ccccc3)C(=O)NCC(=O)NCC(=O)N[C@H]3CSSC[C@H](NC(=O)CNC1=O)C(=O)N[C@@H](CCCCN)C(=O)NCC(=O)N[C@@H](CCCCN)C(=O)NCC(=O)N[C@@H](Cc1c[nH]cn1)C(=O)N[C@@H](CC(=O)O)C(=O)N[C@@H](Cc1ccc(O)cc1)C(=O)N[C@H](C(=O)N[C@@H](C)C(=O)N[C@@H](Cc1c[nH]c4ccccc14)C(=O)N[C@@H](CC(=O)O)C(=O)NCC(=O)N[C@H](C(=O)N[C@@H](Cc1ccccc1)C(=O)N[C@@H](CO)C(=O)N[C@@H](CC(=O)O)C(=O)O)[C@@H](C)O)CSSC[C@H](NC(=O)[C@H](CC(=O)O)NC(=O)[C@H](CC(=O)O)NC(=O)[C@H](CC(=O)O)NC(=O)[C@H](CO)NC(=O)[C@H](CCCCN)NC3=O)C(=O)N2", "target or system": "SCN1A (Homo sapiens, UniProt P35498)", "assay": "sodium current, automated patch clamp", "test system": "HEK293", "conditions": "1 µM, 50 ms depolarizing pulse", "scale": "baseline: compound over control", "quantity": "inactivation time constant ratio", "value": "3.51 ± 0.26"}
